Measurements pooled from the literature.
± marks the error that the study gave.

With `COc1ccc(Cl)cc1C(=O)NCCc1ccc(S(=O)(=O)NC(=O)NC2CCCCC2)cc1` the thermodynamic solubility was 2.82 ± 0.58 mg/g (shake-flask; Cremophor ELP; 37 °C, water up to 0.5% w/w).
With `COc1ccccc1NC(=O)CSc1nncn1C` the thermodynamic solubility was greater than 12100 µM (aqueous buffer; pH 7.4).
`c1coc(Nc2ncnc3ccc(-c4cncc(N5CCOCC5)n4)cc23)n1` has a thermodynamic solubility of 19 µM (0.1 M phosphate buffer; pH 7.4, 25 °C).
The thermodynamic solubility of `CC[C@H](C)C(=O)N1CCC(NC(=O)Nc2ccc(OC(F)(F)F)c(F)c2)CC1` is reported as 14000 µg/mL (PEG 400).
For `c1cc(-c2ccc3ncnc(NC4CCOCC4)c3c2)cc(N2CCOCC2)c1`, the thermodynamic solubility was 200 µM (0.1 M phosphate buffer; pH 7.4, 25 °C).
`Clc1ccccc1C(c1ccccc1)(c1ccccc1)n1ccnc1` gave a thermodynamic solubility of 33.2 ± 3.7 mg/g (shake-flask; Cremophor ELP; 37 °C, water up to 0.5% w/w).
`c1cc(-c2ccc3ncnc(Nc4ncco4)c3c2)cc(N2CC3(COC3)C2)c1` gave a thermodynamic solubility of 3 µM (0.1 M phosphate buffer; pH 7.4, 25 °C).
`CCCCN(CCCC)CCC(O)c1cc2c(Cl)cc(Cl)cc2c2cc(C(F)(F)F)ccc12` (stereo not drawn) has a thermodynamic solubility of 38.3 ± 1.6 mg/g (shake-flask; Cremophor ELP; 37 °C, water up to 0.5% w/w).
For `COc1ccccc1-n1nnnc1SCC(=O)Nc1ccccc1SC`, the thermodynamic solubility was less than 7.14 µM (aqueous buffer; pH 7.4).
The thermodynamic solubility of `COCc1nn(Cc2ccc(Cn3ccccc3=O)cc2)cc1C(=O)NCc1nccc(OC)c1C` is reported as 970 µg/mL (FaSSGF; 4 h, pH 1.6, presumed amorphous solid).
For `C[C@@H]1COCCN1c1cccc(-c2ccc3ncnc(Nc4ncco4)c3c2)c1`, the thermodynamic solubility was 23 µM (0.1 M phosphate buffer; pH 7.4, 25 °C).
`Cc1c(NS(=O)(=O)c2cccc3nonc23)c(=O)n(-c2ccccc2)n1C` gave a thermodynamic solubility of 14.2 µM (aqueous buffer; pH 7.4).
With `COc1ccc2c(c1OC)C(=O)O[C@@H]2[C@H]1c2c(cc3c(c2OC)OCO3)CCN1C` the thermodynamic solubility was 12.8 ± 0.4 mg/g (shake-flask; Cremophor ELP; 37 °C, water up to 0.5% w/w).
With `CN(c1ncco1)c1ncnc2ccc(-c3cccc(N4CCOCC4)c3)cc12` the thermodynamic solubility was 800 µM (0.1 M phosphate buffer; pH 7.4, 25 °C).
The thermodynamic solubility of `COc1ccc([N+](=O)[O-])cc1NC(=O)C(C)Oc1ccccc1C` (stereo not drawn) is reported as less than 10.7 µM (aqueous buffer; pH 7.4).
`Cc1cc(-n2c(=O)[nH]c(=O)n(C)c2=O)ccc1Oc1ccc(SC(F)(F)F)cc1` has a thermodynamic solubility of 10.7 ± 1.07 mg/g (shake-flask; Cremophor ELP; 37 °C, water up to 0.5% w/w).
With `O=C(Cn1nc(-c2cccc([N+](=O)[O-])c2)c2ccccc2c1=O)NCC1CCCO1` (stereo not drawn) the thermodynamic solubility was 19.7 µM (aqueous buffer; pH 7.4).
`COC(=O)Nc1nc2ccc(Sc3ccccc3)cc2[nH]1` has a thermodynamic solubility of 1.75 ± 0.06 mg/g (shake-flask; Cremophor ELP; 37 °C, water up to 0.5% w/w).
`CC1(CNC(=O)c2ccc(-c3ccccc3)cc2)NC(=O)NC1=O` (stereo not drawn) has a thermodynamic solubility of 40.1 µM (aqueous buffer; pH 7.4).
`O=C(O)c1cc(-c2ccc(F)cc2F)ccc1O` has a thermodynamic solubility of 139 ± 7.14 mg/g (shake-flask; Cremophor ELP; 37 °C, water up to 0.5% w/w).
For `CSc1ccc(S(=O)(=O)NCc2ccccn2)cc1`, the thermodynamic solubility was 207 µM (aqueous buffer; pH 7.4).
`C[C@@H]1CN(c2cccc(-c3ccc4ncnc(Nc5ncco5)c4c3)c2)C[C@H](C)O1` has a thermodynamic solubility of 11 µM (0.1 M phosphate buffer; pH 7.4, 25 °C).
`CC(C)(Oc1ccc(C(=O)c2ccc(Cl)cc2)cc1)C(=O)O` has a thermodynamic solubility of 39.5 ± 0.42 mg/g (shake-flask; Cremophor ELP; 37 °C, water up to 0.5% w/w).
For `CN1CCN(c2cccc(-c3ccc4ncnc(Nc5ccc([N+](=O)[O-])c(C(F)(F)F)c5)c4c3)c2)CC1`, the thermodynamic solubility was 2 µM (0.1 M phosphate buffer; pH 7.4, 25 °C).
For `COc1c(/C=C/c2ccc(NS(C)(=O)=O)cc2)cc(-n2ccc(=O)[nH]c2=O)cc1C(C)(C)C`, the thermodynamic solubility was -7.7 log S (50 mM sodium phosphate; 48 h, pH 7.4, 25 °C, crystalline free acid).
`Cc1nc(Nc2ncnc3ccc(-c4cccc(N5CCOCC5)c4)cc23)oc1C` gave a thermodynamic solubility of 0.2 µM (0.1 M phosphate buffer; pH 7.4, 25 °C).
For `CC(Sc1nc2ccccc2[nH]1)C(=O)Nc1ccc(S(N)(=O)=O)cc1` (stereo not drawn), the thermodynamic solubility was 20.8 µM (aqueous buffer; pH 7.4).

A few entries again:
`Cc1c(NS(=O)(=O)c2cccc3nonc23)c(=O)n(-c2ccccc2)n1C` gave a thermodynamic solubility of 14.2 µM (aqueous buffer; pH 7.4).
